{"data": "Published values pooled from the literature", "B1": "bicyclic; chain AATCHCRRSCYSTEYSYGTCTVMGINHRFCCL (also: bicyclic or more (positions not given here))", "note": "Several values in a cell are separate wells, animals, samples, runs or records. ± marks the error that the study gave. No end group written: not given here.", "sequence of UniProt Q9NPD5 (whole entry, looked up)": "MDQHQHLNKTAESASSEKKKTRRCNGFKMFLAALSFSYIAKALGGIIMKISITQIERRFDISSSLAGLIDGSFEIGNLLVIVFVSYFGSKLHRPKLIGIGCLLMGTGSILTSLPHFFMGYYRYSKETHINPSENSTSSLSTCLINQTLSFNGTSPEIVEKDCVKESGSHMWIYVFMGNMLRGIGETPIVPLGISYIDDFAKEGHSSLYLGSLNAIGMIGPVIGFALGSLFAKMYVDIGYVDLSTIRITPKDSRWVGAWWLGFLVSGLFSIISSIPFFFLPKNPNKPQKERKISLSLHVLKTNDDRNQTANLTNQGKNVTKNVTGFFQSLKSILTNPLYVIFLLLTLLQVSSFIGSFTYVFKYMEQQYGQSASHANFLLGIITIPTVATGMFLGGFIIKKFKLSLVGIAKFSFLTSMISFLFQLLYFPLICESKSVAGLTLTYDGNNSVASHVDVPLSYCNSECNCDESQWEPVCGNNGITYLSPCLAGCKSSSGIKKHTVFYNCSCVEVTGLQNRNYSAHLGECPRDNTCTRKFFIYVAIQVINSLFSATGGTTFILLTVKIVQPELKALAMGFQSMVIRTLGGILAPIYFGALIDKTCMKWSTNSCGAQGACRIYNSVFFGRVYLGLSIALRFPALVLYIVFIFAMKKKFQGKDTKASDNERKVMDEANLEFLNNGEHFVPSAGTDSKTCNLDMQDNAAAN", "sequence of UniProt Q9UNQ0 (whole entry, looked up)": "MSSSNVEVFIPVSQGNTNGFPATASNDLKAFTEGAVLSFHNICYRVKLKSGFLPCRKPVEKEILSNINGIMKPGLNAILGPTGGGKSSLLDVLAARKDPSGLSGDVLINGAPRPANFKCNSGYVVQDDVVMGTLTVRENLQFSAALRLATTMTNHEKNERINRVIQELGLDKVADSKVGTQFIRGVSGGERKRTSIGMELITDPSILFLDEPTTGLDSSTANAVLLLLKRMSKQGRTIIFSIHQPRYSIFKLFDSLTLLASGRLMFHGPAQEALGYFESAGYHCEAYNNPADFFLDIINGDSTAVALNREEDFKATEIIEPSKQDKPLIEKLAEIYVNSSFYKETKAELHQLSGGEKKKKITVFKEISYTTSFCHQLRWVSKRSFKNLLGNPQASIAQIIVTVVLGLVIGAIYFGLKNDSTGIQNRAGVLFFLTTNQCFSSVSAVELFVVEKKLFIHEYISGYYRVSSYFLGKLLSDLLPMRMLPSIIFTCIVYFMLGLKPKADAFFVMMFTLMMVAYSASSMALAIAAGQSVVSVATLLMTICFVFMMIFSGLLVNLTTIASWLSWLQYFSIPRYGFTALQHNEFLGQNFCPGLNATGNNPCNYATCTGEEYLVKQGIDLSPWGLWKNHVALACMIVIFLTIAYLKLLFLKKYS"}
{"Substance": "RRVCLCYCRRRSCLCVCR (disulfide (positions not given here)) (disulfide)", "tested on": "human red blood cells", "conditions": "128 µg/mL, 3 h, 37 °C", "how to read": "relative to: Triton X-100 1%", "endpoint": "haemolysis", "result": "45.4%"}
{"Substance": "regorafenib N-β-glucuronide", "system": "Oatp1b2 knockout mice", "conditions": "oral, 10 mg/kg regorafenib", "how to read": "relative to: wild-type mice", "endpoint": "metabolite to parent ratio", "result": "5.3 fold"}
{"Substance": "teicoplanin", "tested on": "Solute carrier organic anion transporter family member 1B3 (SLCO1B3, Homo sapiens, UniProt Q9NPD5)", "test": "inhibitor", "endpoint": "IC50", "result": "7.5 µM"}
{"Substance": "ACDDQNPWRAYLDLLFPTDTLLLDLLW", "test": "ex vivo fluorescence imaging", "system": "peptide, BALB/c mice, 4T1 tumour-bearing, kidney", "conditions": "intravenous, 5 nmol, 24 h post-injection", "how to read": "higher = more uptake", "endpoint": "mean fluorescence intensity", "result": "1290 ± 253 a.u."}
{"Substance": "NRVDSKETEC", "tested on": "human SCRIB PDZ3-4 tandem (MBP fusion)", "test": "automated holdup", "system": "peptide, crude extract", "conditions": "concentration not given, uncorrected, unit not given", "how to read": "relative to: biotin control resin, higher = stronger binding", "endpoint": "binding intensity", "result": 0.715}
{"Substance": "caspofungin", "system": "adult ICU patients, mITT, serum", "conditions": "dose not given, day 30", "endpoint": "albumin", "result": "32.2 g/L"}
{"Substance": "FNA / CGLSGLGVA-NH2 ([18F]FNA-labelled, C-amide)", "test": "ex vivo gamma counting", "system": "peptide, healthy mouse, uterus", "conditions": "60 min post injection", "endpoint": "tissue uptake", "result": "0.6 %ID/g"}
{"Substance": "Tumor necrosis factor alpha", "tested on": "ATP-dependent translocase ABCB1 (ABCB1, Homo sapiens, UniProt P08183)", "system": "enteroid monolayers", "conditions": "1 ng/mL, 48 h, added: tariquidar 10 µM", "endpoint": "digoxin efflux ratio", "result": "increased"}
{"Substance": "KPGKGSETVV", "tested on": "human MAGI1-3/6 PDZ construct (MBP fusion)", "test": "automated holdup", "system": "peptide, crude extract", "conditions": "concentration not given, corrected by standard peak, unit not given", "how to read": "relative to: biotin control resin, higher = stronger binding", "endpoint": "binding intensity", "result": 0.128}
{"Substance": "Polymyxin B", "test": "untargeted LC-MS metabolomics, refers to: L-methionine", "system": "Sprague-Dawley rat, right cerebral cortex", "conditions": "intracerebroventricular, 0.75 mg/kg, 1 h", "how to read": "relative to: NaCl control", "endpoint": "log2 fold change", "result": -9.5}
{"Substance": "LVHYTHCGSLGV", "tested on": "Epstein-Barr virus", "system": "peptide, EBV-infected humanized B-NDG mice", "conditions": "20 mg/kg, day 0", "endpoint": "body weight", "result": "21.8 g and 19.4 g and 22.9 g"}
{"Substance": "B1", "test": "sedimentation velocity AUC", "system": "10 mM Tris-maleate", "conditions": "50 µM, pH 6.4, 20 °C", "endpoint": "sedimentation coefficient S20,w", "result": "0.796 S"}
{"Substance": "Triton X-100", "tested on": "human red blood cells", "conditions": "concentration not given, 1 h", "endpoint": "hemolysis", "result": "99.9%"}
{"Substance": "Teicoplanin", "test": "refers to: stability", "system": "human serum", "conditions": "time not given, low QC, 3 freeze-thaw cycles", "endpoint": "recovery", "result": "96%"}
{"Substance": "Rilpivirine docusate", "system": "Capmul MCM C8", "conditions": "mean of three", "endpoint": "kinetic solubility", "result": "~500 mg/mL"}
{"Substance": "TYASNTSTL", "tested on": "HLA-A24 complex with compound", "test": "nanoDSF", "system": "peptide", "conditions": "pH 7.6, 2 µM complex", "endpoint": "Tm", "result": "61.8 ± 0.1 °C"}
{"Substance": "Lucifer yellow", "tested on": "Broad substrate specificity ATP-binding cassette transporter ABCG2 (ABCG2, Homo sapiens, UniProt Q9UNQ0)", "test": "substrate", "how to read": "relative to: ATP over AMP", "endpoint": "uptake ratio", "result": 37}
{"Substance": "NASC", "tested on": "PC-12", "test": "CellTiter-Glo", "system": "peptide", "conditions": "1 mM, 72 h", "how to read": "relative to: vehicle", "endpoint": "viability", "result": "103% and 100% and 101%"}
